Published values from different studies.
Every numbered part comes from another study and shows a few of its results, in no order. Changes are numbered by the printed parent chain.
Chain of UniProt P48730 (whole entry, looked up): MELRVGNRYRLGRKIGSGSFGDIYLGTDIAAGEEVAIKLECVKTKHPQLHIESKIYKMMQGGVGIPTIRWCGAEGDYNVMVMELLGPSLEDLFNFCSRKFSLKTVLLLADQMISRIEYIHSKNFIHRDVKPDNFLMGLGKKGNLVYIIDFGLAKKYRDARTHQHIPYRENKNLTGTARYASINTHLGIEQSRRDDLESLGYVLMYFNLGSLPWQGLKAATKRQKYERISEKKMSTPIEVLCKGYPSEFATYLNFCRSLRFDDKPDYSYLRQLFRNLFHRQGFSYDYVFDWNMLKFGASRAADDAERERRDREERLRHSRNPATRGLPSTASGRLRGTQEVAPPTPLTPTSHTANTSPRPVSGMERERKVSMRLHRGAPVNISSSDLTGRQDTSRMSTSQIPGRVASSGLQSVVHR

Set 1 — technique: universal PBM; molecule type: double-stranded DNA, one strand shown; matrix: in vitro; concentration: 600 nM; reading: higher = stronger binding
Target: Sal-like protein 4, full length isoform A (SALL4, Homo sapiens, UniProt Q9UJQ4, residues 1-1053)
Chain of UniProt Q9UJQ4 (whole entry, looked up): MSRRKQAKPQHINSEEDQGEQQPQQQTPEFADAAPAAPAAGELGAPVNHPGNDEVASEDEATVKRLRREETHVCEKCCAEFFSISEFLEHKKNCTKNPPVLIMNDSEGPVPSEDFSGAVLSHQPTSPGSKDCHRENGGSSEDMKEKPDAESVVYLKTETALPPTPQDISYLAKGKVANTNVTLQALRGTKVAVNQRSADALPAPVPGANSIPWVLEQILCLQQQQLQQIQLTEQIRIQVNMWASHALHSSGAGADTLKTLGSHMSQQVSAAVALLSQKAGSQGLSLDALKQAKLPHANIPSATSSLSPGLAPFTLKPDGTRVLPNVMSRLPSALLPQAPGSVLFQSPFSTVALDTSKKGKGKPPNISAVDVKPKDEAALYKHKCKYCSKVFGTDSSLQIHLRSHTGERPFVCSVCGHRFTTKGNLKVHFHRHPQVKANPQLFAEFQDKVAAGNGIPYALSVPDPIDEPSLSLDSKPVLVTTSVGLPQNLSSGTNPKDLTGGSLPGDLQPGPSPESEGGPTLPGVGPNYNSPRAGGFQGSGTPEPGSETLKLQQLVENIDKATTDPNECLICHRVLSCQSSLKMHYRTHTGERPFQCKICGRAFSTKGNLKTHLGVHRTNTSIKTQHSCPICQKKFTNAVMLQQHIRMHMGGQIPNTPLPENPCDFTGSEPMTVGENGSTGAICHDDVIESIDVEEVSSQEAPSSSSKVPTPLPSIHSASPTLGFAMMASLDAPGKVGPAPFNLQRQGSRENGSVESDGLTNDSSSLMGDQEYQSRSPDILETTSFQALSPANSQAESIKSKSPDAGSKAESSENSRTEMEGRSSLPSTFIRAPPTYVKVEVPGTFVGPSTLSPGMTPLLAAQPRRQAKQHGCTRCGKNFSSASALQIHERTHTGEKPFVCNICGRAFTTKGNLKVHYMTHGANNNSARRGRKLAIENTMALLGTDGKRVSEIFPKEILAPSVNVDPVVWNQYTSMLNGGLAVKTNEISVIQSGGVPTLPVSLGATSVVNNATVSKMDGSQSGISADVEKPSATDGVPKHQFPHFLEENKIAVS
Notes: 8-mer, flanks averaged, mean of replicates
| Sequence | E-score |
| --- | --- |
| CAGGAGAG | -0.0626 |
| CGTCATAA | 0.295 |
| CAAGTACG | -0.0285 |
| AGCCTGTG | -0.183 |
| TCACCGGA | -0.174 |
| CCTGATCC | -0.148 |
| ATTACGAA | 0.3 |
| AGGGAGGG | -0.249 |

Set 2 — target: CCND2, cyclin fold, Cln2 fusion (human); technique: yeast growth competition, sequencing; matrix: yeast; notes: weak parent motif; baseline: not given; reading: higher = stronger binding
Starting sequence: ORC1 docking peptide (human); PRARKRLELGNLG; partner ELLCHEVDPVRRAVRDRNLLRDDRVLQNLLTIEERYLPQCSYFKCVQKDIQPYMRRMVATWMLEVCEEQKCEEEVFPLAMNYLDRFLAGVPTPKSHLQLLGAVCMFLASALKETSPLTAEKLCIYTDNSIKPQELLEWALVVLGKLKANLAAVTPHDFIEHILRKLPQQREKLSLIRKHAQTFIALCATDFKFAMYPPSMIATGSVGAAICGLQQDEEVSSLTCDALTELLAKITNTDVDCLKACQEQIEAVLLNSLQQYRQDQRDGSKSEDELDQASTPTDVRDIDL
| Variant | normalised enrichment score |
| --- | --- |
| R2I | 0.193 |
| R2F | 0.0796 |
| G13Q | -0.0615 |
| R2P | -0.22 |
| R4F | 0.0956 |
| K5H | 0.198 |
| E8V | 0.234 |
| R4E | 0.18 |

Mixed results
| Substance | target or system | assay | conditions | scale | endpoint | value |
| --- | --- | --- | --- | --- | --- | --- |
| COc1cc2ncnc(Nc3ccc(Oc4ccccc4)cc3)c2cc1OC | Casein kinase I isoform delta (CSNK1D, Homo sapiens, UniProt P48730) | enzyme activity, inhibitor | 0.5 µM | baseline: control | remaining activity | 106% |
| PSMA2 (Homo sapiens, UniProt P25787) | PSMA4 (Homo sapiens, UniProt P25789) | cross-linking MS | hits only |  | interaction screen | cross-linked |
